# Experimental data collected from several papers.
# A part holds a random share of what one study measured.

# Set 1
# Target: Prothrombin, mature alpha-thrombin (F2, Homo sapiens, UniProt P00734)
# Method: aptamer microarray, sandwich
# Molecule type: DNA with 2'F-ANA
# Sample: in vitro
# Concentration: 200 nM
# Setting: whole 15-mer aptamer, many near background
# Added: Cy3 exosite-II aptamer, 400 nM
# Direction: higher = stronger binding
# Strand: GGTTGGTGTGGTTGG
Modification,mean fluorescence intensity
2'F-ANA at 2 3 4 5 6 7 8 12 13 14,72.4 a.u.
2'F-ANA at 1 2 5 7 9 10,46.4 a.u.
2'F-ANA at 2 4 5 7 9 10 12,49.9 a.u.
2'F-ANA at 1 2 3 4 6 7 9 10 11 14 15,55.5 a.u.
2'F-ANA at 4 5 12 14 15,49.7 a.u.
2'F-ANA at 1 3 6 8 10 11 12 13 15,91.2 a.u.
2'F-ANA at 3 5 6 7 8 11 13 15,89.9 a.u.
2'F-ANA at 5 6 7 9 11,63.7 a.u.
2'F-ANA at 1 2 4 7 8 9 12 13 14,58.7 a.u.
2'F-ANA at 1 3 5 6 13 14,50.5 a.u.
2'F-ANA at 1 5 6 8 9 10 13 15,49.6 a.u.
2'F-ANA at 3 5 7 9 10 11 13 14,53.1 a.u.
2'F-ANA at 1 3 7 8 9 10 11 13 14,76.4 a.u.
2'F-ANA at 2 3 7 13 14,471 a.u.
2'F-ANA at 1 2 4 6 9 10 11 12 15,62.4 a.u.
2'F-ANA at 1 4 5 6 7 8 11 13 14,50.4 a.u.
2'F-ANA at 2 4 5 8 10 11 13 15,44.8 a.u.
2'F-ANA at 1 2 3 6 10 15,59.7 a.u.
2'F-ANA at 1 2 4 5 6 7 8 9 12 13 15,73.7 a.u.
2'F-ANA at 2 4 7 8 9 14 15,111 a.u.
2'F-ANA at 1 2 4 5 7 12 13,81.1 a.u.
2'F-ANA at 1 2 7 9 13 14 15,63 a.u.
2'F-ANA at 1 6 8 9 10 14,48.9 a.u.
2'F-ANA at 3 5 6 10 11 14 15,50.5 a.u.
2'F-ANA at 1 4 5 9 12 13 14 15,117 a.u.

# Set 2
# Target: Sal-like protein 4, full length isoform A (SALL4, Homo sapiens, UniProt Q9UJQ4, residues 1-1053)
# UniProt Q9UJQ4, sequence (whole entry, looked up): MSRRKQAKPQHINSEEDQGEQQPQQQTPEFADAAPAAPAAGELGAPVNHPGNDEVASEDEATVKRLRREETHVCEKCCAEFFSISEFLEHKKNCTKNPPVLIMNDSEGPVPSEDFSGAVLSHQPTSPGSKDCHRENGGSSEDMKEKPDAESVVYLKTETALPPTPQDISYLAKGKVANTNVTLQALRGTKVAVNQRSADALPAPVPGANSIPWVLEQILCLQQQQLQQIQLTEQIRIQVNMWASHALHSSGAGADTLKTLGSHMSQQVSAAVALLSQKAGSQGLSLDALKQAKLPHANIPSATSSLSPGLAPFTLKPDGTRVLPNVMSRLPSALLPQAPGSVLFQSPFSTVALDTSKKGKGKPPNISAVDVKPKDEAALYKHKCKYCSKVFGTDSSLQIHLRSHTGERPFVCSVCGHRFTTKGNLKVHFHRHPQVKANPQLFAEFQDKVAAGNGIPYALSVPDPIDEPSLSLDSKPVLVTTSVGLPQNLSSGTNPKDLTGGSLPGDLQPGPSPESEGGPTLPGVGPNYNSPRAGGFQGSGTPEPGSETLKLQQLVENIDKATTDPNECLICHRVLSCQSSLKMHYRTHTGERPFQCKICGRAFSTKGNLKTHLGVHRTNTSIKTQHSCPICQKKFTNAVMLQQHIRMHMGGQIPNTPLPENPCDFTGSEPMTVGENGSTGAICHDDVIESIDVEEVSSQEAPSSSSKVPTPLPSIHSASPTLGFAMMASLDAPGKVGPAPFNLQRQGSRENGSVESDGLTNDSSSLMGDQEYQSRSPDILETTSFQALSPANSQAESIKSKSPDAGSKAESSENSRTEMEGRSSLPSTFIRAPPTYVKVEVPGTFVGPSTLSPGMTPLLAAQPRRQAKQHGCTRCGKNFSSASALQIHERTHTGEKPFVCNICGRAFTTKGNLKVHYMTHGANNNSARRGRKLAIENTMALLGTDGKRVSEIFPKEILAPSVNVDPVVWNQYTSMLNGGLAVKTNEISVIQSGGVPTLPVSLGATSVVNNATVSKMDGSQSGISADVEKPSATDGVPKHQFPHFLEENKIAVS
# Method: universal PBM
# Molecule type: double-stranded DNA, one strand shown
# Sample: in vitro
# Concentration: 600 nM
# Setting: 8-mer, flanks averaged, mean of replicates
# Direction: higher = stronger binding
Strand,E-score
CGCGACAA,0.0168
CCGCCTAG,-0.162
CCTCCTAC,-0.227
CCGGCACC,-0.335
AAACCTTT,0.0438
ACATTTCG,0.133
AATGTTGG,0.148
TTAGTAAA,0.237
GAAATGCA,0.134
GGGCACTA,-0.145
ACACTACC,-0.172
CCACCGGA,-0.0833
ACCTGGCG,-0.275
AAAATGCA,0.165
AAGACTGT,-0.00822
CACAACGC,-0.129
AGCTGTCG,-0.114
AGCAGCTG,-0.0391
CTTTCATA,0.343
AAGCAAGC,0.00013
GCGGAGTA,-0.167

# Set 3
# Target: RNA binding protein fox-1 homolog 2, RRM domain, GST-SBP tag (RBFOX2, Homo sapiens, UniProt O43251-10, residues 100-194)
# Method: RNA Bind-n-Seq
# Molecule type: RNA
# Sample: in vitro
# Concentration: 365 nM
# Setting: natural RNA segment, single round, ends assumed
# Reference: no-protein control
# Direction: higher = stronger binding
# Constant ends, left off below: GGGAGUUCUACAGUCCGACGAUC … UGGAAUUCUCGGGUGCCAA
# Target sequence (chain): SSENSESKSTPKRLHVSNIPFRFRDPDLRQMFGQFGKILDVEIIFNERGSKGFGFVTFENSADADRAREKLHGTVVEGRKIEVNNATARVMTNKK
Strand,RBNS enrichment (R)
ACCAACUGUAGGAGUCAGAGGUGUUGGCAAAAGUAUGCAUGAAUGCUAACCUUUGCACAUACUCUGUUUUUACUUUGAUGGCUUCUCCAGGUUUUUGUCAGGUACCACAU,0.633
AACUCUUUCAAACCCAAAAUAUUAUUGGUGGUACAUUUUAAAGUCCAAUUGUGGACUUAAAUUAGUCAAAUUGAGAGUUACUGAGUCCAUUCAGAUCUCCAGUAGGGUUU,0.483
AGUGAAUGUUCUAUCAGCAUGAGUGACCAGGGCAAGGACCUGCUGGACAGUGUGUGAUUGGUUCACCAUGACACGAGGGACGAUGCUCAUGGGAAGUGGGGGCACAGGGU,15.3
GUUCCCUACAGUUUGCUGCUGAGCUGGAAGCUGUGGGGGAAGGAGUUGACAGGUGGGCCCAGUGAACUUUUCCAGUAAAUGAAGCAAGCACUGAAUAAAAACCUCCUGAA,0.27
GAUUUGAAUUGAUUGACAAGUCCUGGCAUGUGACAAUUUUACUAAAUUACCAAGUUUGGUUUUUAAUAAUUUCACAAUAUUAUGCGCCAAGAUCUAAUUUUAAAAAUGUA,0.619
GCACAUUAAUUCCUGUCCUAUAAGAGGGCUGUGGGAAACUGUGUACCUGGAGGUGGUCCAUGCCAGAUCCUCAUUUGUGCCUUCAGCUUCAUAGGCAGCAUACGCCUGCU,0.521
UCUGUUUUGUUGUUAAUGCUCAGACAGUAUUGUCUGAGAAAUUACACCUGAGUGCAUUUAAGUAUUUAGAGUAUAAGUUUCAUGCAUAGAAAGUUAACCCUAUUAAUUUC,0.469
CUCAACUCUCAAUAUUGCUUUAUCAGCAUCUUUUCUCUGUAGCUCCAGGGGAAUCUUUUCUCUAAAACAUUUAUGCCCUUGCUUUGGCUAGAAACACAUUAACUGGUUUA,0.415
GGCAGUUGUGCCAACCCAAGGGCUCUUUCAUUGUUCGUUGGCUUCUGUCUUUAAAGCCAAGAAAGUAGUAAUUAAGUAGCCUAGAUUUAAGGAGGGUAGAAUAAGCAUUU,0.573
UACCUAGCCAGUUGUUUCUGAGGACCAGGCAACUUUUGAACUCCUGUCUCUGUGAGAAUGUAUACUUUAUGCUCUCUGAAAUGUAUGACACCCAGCUUUAAAACAAACAA,0.841
CCUCACAUAUCACAGCCCUUCUCUCCCAAAGGGACCUUUGCAGCUUCUAUUGGACCCAGAUACCCUUUACCUCUACAGCAUAGACACCAAAUGUCCCAUAGUCCUCUCAC,1.01
UUUUCCCAUCCACUGAAACAGCCUGUUGUAGCAAGAGGCUUUCAAGAGUGCAGUGGAGUUGCGCUGGCCAUCAGUGUUUGGGGUCUGAGUUUGAUAGACUAGUGCAGCGA,0.888

# Set 4
# Target: Centromere-binding protein 1, full length, His-tagged (CBF1, Saccharomyces cerevisiae, UniProt P17106, residues 1-351)
# UniProt P17106, sequence (whole entry, looked up): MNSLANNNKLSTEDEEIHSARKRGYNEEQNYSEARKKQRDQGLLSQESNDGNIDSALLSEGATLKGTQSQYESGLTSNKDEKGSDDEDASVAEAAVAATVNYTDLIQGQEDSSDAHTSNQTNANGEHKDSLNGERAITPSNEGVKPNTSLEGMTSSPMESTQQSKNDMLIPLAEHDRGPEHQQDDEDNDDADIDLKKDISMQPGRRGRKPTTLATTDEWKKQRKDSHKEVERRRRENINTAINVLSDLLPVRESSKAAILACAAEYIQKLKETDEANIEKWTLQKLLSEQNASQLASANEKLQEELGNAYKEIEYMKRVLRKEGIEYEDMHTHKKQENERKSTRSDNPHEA
# Method: competition protein-binding microarray
# Molecule type: double-stranded DNA, one strand shown
# Sample: in vitro
# Concentration: 2 µM
# Setting: whole 60-bp probe, lowest competitor level
# Added: Pho4 competitor, 0.05 µM
# Direction: higher = stronger binding
# Constant ends, left off below: … GTCTTGATTCGCTTGACGCTGCTG
Strand,fluorescence intensity
CTGCCTAACAGGATGCACATGTTTGTTTATTGCTGA,187 a.u.
CTAACGAAGGTTTGTCACTCGACTTACAAGCCAAGT,63.3 a.u.
AAATTACTAAGTTGTCACGTGACTTACCCCGTATGA,29700 a.u.
AAGATTCAGCCTTAGCACGCACCAATTCTTGTTCCA,81.6 a.u.
CGTCCTAGTGATTTTCACGTGGGATCCATGAGGAAG,637 a.u.
CGGGGTTAAGTTTGTCACTTTACTTGCTTGCAGCAG,60.1 a.u.
TATCTTGACTATTGCCACGTTGCGGTAGGTGGTACG,65.9 a.u.
TCGCATAGACGAACCCGCGTGCGATTGGTAAATTGC,84 a.u.
CGGGGTTAAGTTTGATAAGTGGGTGGCTTGCAGCAG,70.4 a.u.
GCAGCCGCAGCGAGTCACGTGGTCGCGCAAATGATG,11400 a.u.
CTTTCCCGATCTTGGATTGTGGGTGTAGCACATTTG,65.8 a.u.
CTTACCGTCCACTTTAACGTGACGGAGCATCAAGAT,132 a.u.
TGCGCAACAACTTGTCACCTGACTTTATGTCTAGAA,1810 a.u.
TAAACAATACTTAAAAACGTGTTGGAACTTTTACGA,151 a.u.
CGCGAATGAGTTTGCCACGTCGTTTGCCCCGATGTT,70.5 a.u.
GCTCTTAAGTCCTCGGTCGTGATGGCGTCAGCCTGT,70.6 a.u.
CGGGGTTAAGTTTGTCACTACACTTGCTTGCAGCAG,74.8 a.u.
CAGTATCATCGTCATTGGTAGTATTCACTAGGGGAC,80.2 a.u.
GATGTAATGTCCACACAGGTGATGGAATCATCCATT,78.3 a.u.
CATCTAACTTTTTTGCACGTGAATTGGATCTTGAGT,1140 a.u.
CTAACGAAGGTTTGGGCTGTGGGTGACAAGCCAAGT,74.4 a.u.
CGAAACATAACGATAAACGTGGTGAAGTTTTCGATT,107 a.u.

# Set 5
# Target: Fragile X messenger ribonucleoprotein 1, C-terminal low-complexity region (Fmr1, Mus musculus, UniProt P35922)
# Method: RNA Bind-n-Seq
# Molecule type: RNA
# Sample: in vitro
# Concentration: 200 nM
# Setting: whole 134-nt RNA, ends assumed
# Added: 150 mM LiCl
# Reference: input library
# Direction: higher = stronger binding
# Library: 7-deaza-guanosine replaces G
# Constant ends, left off below: GGGAGUUCUACAGUCCGACGAUC … UGGAAUUCUCGGGUGUCAAGG
Strand,log2 enrichment
ACCAUGCAGGUGGGCAUCUUUGGGAAGUGGGGCAAGGGGGGGAUAGGGAGGGGGGUAACACUUUGGGAACAGGUGGUCCCAGGUCGUUUA,1.28
CCUCAAGUCCUGUGCUACACAUCGUAUGUACCGAAUCGGUUUGGUUUGGAGGAAAGUAUUAUGUUACGCCGUUCGGAUCUGCACUUCCAG,-0.519
UCCUGUGCUACACAUCGUAUGUACCGAAUCAAAUUUUUAAAUUUUUAAAUUUUUUUAAAAAAGUAUUAUGUUACGCCGUUCGGAUCUGCA,-2.55
UUUCAGGGGAGCUCUUUGCUCAGGCCCCGGUGGAUCAGUUUCCUGGCACAGCUGUGGAGAGUGUGACGGAUUCCAGCAGGUACUUCGUGA,-1.97
UCAAGUCCUGUGCUACACAUCGUAUGUACCGAAUCGGUUUUUGGUUUGGAAAGGAAAGUAUUAUGUUACGCCGUUCGGAUCUGCACUUCC,-1.19
UGGCCCUGGUGGCAUGCGGGGAGGAAGAGGUGGCCUCAUGGAUCGUGGUGGUCCCGGUGGAAUGUUCAGUGGUGGCCGUGGUGGAGACAG,0.0262
GUCCUGUGCUACACAUCGUAUGUACCGAAUCGGGUUUGGGAAAAAAAGGGAAAAAGGGAAAGUAUUAUGUUACGCCGUUCGGAUCUGCAC,-0.337
UAGGUGUUAUCUUCAGGAAGGCACACUGGACCUGCUAAAUUAACAAAUGGAAAGAAAGCGUAAGUACUUGAAGACGUUUACAACUUCAGA,-2.66
UCAAGUCCUGUGCUACACAUCGUAUGUACCGAAUCGGGAAAGGAAAGGGAAAGGAAAGUAUUAUGUUACGCCGUUCGGAUCUGCACUUCC,-1.02
AGUCCUGUGCUACACAUCGUAUGUACCGAAUCGGUUUUUGGAAAAAAAGGAAAAAGGAAAGUAUUAUGUUACGCCGUUCGGAUCUGCACU,-2.98
ACCAUGCAGGUGGGCAUCUUUGGGAAGUGGGGCAAGGGGGGGAUAGGGAGGGGGGUAACACUUUGGGAACCGGUGGUCCCAGGUCGUUUC,1.32
